Measurements of several laboratories.
Each numbered part is a random draw from the data of one study; scales do not carry over between parts.
Chain of UniProt O75116 (whole entry, looked up): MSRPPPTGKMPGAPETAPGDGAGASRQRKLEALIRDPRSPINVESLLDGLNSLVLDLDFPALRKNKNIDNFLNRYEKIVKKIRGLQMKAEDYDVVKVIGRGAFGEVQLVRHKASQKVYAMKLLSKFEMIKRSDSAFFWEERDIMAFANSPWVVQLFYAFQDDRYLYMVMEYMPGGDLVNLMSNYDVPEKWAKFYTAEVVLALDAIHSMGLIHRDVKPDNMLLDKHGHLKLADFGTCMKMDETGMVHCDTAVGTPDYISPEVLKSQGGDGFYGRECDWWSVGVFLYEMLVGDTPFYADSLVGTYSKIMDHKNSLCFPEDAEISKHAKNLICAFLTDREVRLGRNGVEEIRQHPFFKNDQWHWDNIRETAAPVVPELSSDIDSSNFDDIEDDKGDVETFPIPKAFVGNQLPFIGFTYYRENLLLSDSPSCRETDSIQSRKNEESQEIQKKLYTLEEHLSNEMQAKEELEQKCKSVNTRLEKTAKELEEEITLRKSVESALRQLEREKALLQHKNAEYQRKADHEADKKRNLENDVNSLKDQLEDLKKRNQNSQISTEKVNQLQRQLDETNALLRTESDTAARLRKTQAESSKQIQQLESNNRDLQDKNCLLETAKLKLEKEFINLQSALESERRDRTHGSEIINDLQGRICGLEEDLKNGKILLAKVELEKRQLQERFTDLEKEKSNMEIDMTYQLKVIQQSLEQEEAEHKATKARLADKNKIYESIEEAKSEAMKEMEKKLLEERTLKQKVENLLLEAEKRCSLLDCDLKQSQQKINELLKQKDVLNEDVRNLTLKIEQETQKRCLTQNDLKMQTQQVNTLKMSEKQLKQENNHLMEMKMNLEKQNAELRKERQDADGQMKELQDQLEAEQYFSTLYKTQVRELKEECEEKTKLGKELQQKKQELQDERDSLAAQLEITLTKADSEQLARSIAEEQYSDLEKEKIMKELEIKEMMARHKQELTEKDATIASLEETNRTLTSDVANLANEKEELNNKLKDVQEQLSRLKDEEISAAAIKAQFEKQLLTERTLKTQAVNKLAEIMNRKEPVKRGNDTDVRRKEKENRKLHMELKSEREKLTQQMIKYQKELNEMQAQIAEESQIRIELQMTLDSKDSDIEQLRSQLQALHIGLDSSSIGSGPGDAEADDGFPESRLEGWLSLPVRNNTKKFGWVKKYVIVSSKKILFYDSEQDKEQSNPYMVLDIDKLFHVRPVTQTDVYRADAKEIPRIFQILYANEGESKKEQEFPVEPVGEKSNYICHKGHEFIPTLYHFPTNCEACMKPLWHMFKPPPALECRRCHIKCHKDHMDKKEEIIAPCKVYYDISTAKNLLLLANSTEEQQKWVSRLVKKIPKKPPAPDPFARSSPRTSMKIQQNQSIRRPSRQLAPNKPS
Chain of UniProt O43293 (whole entry, looked up): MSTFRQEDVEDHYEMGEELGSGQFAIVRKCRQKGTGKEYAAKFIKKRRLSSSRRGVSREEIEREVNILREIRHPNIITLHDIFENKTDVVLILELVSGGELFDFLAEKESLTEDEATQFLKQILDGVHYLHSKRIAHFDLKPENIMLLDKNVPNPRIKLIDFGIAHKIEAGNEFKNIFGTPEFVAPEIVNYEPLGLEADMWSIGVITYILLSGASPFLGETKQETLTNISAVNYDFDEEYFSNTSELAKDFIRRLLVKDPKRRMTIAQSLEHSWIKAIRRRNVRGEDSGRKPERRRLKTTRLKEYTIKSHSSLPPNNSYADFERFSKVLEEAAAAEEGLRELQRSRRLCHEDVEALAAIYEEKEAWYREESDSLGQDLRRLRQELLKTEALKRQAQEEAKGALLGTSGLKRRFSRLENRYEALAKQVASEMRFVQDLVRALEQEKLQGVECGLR
Chain of UniProt Q8IW41 (whole entry, looked up): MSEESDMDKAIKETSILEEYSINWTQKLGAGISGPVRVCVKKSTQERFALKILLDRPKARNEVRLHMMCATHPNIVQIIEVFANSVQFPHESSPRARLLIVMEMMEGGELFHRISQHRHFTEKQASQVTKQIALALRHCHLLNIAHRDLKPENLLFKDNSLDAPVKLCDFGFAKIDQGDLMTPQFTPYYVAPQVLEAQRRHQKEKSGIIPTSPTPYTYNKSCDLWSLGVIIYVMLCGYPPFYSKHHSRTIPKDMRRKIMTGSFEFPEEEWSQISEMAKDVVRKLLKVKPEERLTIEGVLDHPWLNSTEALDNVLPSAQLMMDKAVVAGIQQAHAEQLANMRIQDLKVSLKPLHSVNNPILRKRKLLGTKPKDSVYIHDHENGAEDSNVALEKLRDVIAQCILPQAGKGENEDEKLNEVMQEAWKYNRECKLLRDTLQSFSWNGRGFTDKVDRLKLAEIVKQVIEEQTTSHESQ

Block 1
Compound: C[C@@]1(Cc2ccc(C#N)cc2)C(=O)N(c2cc(Cl)cc(Cl)c2)c2ncc(C(=O)NC3(c4nc(C5CCC5)no4)CC3)n21
Read-out: cell-free assay
Technique: competition with immobilised ligand
Concentration: 1 µM
Quantity: remaining binding
Activin receptor type-2A (ACVR2A, Homo sapiens, UniProt P27037): 92%
Serine/threonine-protein kinase WNK4 (WNK4, Homo sapiens, UniProt Q96J92): 100%
MAP kinase-activated protein kinase 5 (MAPKAPK5, Homo sapiens, UniProt Q8IW41): 100%
Rho-associated protein kinase 2 (ROCK2, Homo sapiens, UniProt O75116): 100%
Calcium/calmodulin-dependent protein kinase type 1 (CAMK1, Homo sapiens, UniProt Q14012): 93%
Calcium/calmodulin-dependent protein kinase type IV (CAMK4, Homo sapiens, UniProt Q16566): 100%
Dual specificity mitogen-activated protein kinase kinase 6 (MAP2K6, Homo sapiens, UniProt P52564): 80%
MAP kinase-activated protein kinase 2 (MAPKAPK2, Homo sapiens, UniProt P49137): 100%
Receptor-type tyrosine-protein kinase FLT3 (FLT3, Homo sapiens, UniProt P36888): 98%
Death-associated protein kinase 3 (DAPK3, Homo sapiens, UniProt O43293): 94%
Homeodomain-interacting protein kinase 3 (HIPK3, Homo sapiens, UniProt Q9H422): 100%
Serine/threonine-protein kinase Nek6 (NEK6, Homo sapiens, UniProt Q9HC98): 100%
Receptor-type tyrosine-protein kinase FLT3 (FLT3, Homo sapiens, UniProt P36888, K663Q): 100%
Vascular endothelial growth factor receptor 2 (KDR, Homo sapiens, UniProt P35968): 100%
cGMP-dependent protein kinase 2 (PRKG2, Homo sapiens, UniProt Q13237): 100%

Block 2
Target: ALK tyrosine kinase receptor (ALK, Homo sapiens, UniProt Q9UM73)
Chain of UniProt Q9UM73 (whole entry, looked up): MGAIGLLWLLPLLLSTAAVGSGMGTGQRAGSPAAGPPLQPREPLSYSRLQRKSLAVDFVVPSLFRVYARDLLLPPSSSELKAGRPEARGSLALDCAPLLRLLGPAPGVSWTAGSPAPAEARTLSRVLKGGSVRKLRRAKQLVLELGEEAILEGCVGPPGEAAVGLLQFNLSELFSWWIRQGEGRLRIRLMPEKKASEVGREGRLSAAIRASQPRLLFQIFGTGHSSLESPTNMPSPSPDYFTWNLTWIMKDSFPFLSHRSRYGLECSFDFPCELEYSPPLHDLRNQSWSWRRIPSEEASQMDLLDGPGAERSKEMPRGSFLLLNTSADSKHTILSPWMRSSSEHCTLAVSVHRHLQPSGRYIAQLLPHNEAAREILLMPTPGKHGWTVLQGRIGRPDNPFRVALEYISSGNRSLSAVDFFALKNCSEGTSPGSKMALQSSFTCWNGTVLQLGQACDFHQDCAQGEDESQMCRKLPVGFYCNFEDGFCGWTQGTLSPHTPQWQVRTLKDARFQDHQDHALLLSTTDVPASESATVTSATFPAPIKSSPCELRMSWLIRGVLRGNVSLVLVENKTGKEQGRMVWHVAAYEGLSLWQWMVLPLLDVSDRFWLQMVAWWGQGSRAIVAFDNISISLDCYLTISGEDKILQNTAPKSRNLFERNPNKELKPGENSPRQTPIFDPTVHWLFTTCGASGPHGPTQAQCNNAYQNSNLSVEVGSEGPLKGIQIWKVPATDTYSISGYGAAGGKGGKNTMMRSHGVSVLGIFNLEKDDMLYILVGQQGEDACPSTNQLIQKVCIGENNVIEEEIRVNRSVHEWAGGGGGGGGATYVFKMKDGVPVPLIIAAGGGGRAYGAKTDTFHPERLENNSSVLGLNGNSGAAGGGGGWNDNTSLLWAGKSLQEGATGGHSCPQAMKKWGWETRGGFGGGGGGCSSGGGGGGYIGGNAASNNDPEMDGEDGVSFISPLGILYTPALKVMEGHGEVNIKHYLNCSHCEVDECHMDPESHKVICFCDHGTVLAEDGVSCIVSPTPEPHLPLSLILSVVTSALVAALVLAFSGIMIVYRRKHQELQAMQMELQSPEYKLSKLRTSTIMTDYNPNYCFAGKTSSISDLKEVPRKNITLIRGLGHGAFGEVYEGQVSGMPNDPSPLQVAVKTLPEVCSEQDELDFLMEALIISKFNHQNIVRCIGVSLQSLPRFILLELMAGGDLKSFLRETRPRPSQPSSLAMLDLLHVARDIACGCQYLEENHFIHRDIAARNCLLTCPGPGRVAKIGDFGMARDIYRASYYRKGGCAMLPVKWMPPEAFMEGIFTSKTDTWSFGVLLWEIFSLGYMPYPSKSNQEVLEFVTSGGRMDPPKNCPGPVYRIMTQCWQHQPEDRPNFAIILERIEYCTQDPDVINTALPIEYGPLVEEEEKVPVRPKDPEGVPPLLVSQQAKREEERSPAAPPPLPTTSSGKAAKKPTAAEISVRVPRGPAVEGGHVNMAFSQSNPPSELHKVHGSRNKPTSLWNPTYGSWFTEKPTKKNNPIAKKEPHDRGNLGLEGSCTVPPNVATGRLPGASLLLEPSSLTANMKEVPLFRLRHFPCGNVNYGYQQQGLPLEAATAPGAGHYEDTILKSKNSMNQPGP
Read-out: enzyme activity
Mode: inhibitor
Concentration: 0.5 µM
Reference: control
Quantity: remaining activity
CC(C)(C)c1nc2c3cc[nH]c(=O)c3c3cc(F)ccc3c2[nH]1: 20%
C[C@@H](N)[C@H]1CC[C@H](C(=O)Nc2ccncc2)CC1: 94.8%
Nc1nc(Nc2ccc(S(N)(=O)=O)cc2)nn1C(=S)Nc1c(F)cccc1F: 16.7%
Clc1ccc(Nc2nnc(Cc3ccncc3)c3ccccc23)cc1: 102%
FC(F)(F)c1ccc(/C=C/c2nc(COc3ccc(CCCCn4ccnn4)cc3)co2)cc1: 108%
NC(=O)c1ccc(-c2nc(-c3ccc4c(c3)OCCO4)c(-c3ccccn3)[nH]2)cc1: 100%
O=C(O)/C=C/c1cc(Br)c(Br)c(Br)c1Br: 98.6%
CCCCc1c(-c2ccc(O)cc2)[nH]c2nccnc12: 85%
O=C(c1ccccc1)c1ccc(N2CCOCC2)cc1O: 102%
O=C1c2ccccc2-c2nc3nnnn3nc21: 83.5%
O=c1c(-c2ccc(F)cc2)c(-c2ccncc2)[nH]n1-c1ccc(Cl)cc1: 83.8%
c1cc(-c2cnn3cc(-c4ccc(OCCN5CCCCC5)cc4)cnc23)ccn1: 84.5%
CC(C)n1cnc2c(Nc3cccc(Cl)c3)nc(NCCO)nc21: 91.8%
CNc1cc2c(Nc3cccc(Br)c3)ncnc2cn1: 82%
NC(=O)c1cccc(-c2cc(Nc3ccc(OC(F)(F)F)cc3)ncn2)c1: 103%
CCN(CC)CCCCN1c2ccccc2Oc2ccc(Cl)cc21: 106%
CC(C)N(CCC(=O)c1ccc2ccccc2c1)Cc1ccccc1: 88.9%
O=C1NC(=O)/C(=C/c2ccc3c(c2)OC(F)(F)O3)S1: 83.4%
N#C/C(=C(/N)SC1C=CC=CC1)c1cccc(C(O)c2ccncc2)c1 (centres unmarked): 96.3%

Block 3
Target: CRBN/Zinc finger protein Helios (Homo sapiens, UniProt Q96SW2+Q9UKS7)
Chain of UniProt Q96SW2 (whole entry, looked up): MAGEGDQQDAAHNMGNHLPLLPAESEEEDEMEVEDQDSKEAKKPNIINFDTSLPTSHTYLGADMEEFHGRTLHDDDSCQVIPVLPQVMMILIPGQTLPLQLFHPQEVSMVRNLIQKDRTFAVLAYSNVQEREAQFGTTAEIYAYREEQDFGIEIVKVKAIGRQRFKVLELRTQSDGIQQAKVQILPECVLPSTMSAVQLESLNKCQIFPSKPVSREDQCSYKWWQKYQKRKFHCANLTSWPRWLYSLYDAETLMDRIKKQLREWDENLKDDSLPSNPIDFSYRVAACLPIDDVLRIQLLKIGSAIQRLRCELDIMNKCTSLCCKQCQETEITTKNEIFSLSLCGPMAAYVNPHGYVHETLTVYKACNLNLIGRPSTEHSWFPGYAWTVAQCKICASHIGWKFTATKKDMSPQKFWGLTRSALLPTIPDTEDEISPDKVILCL
Chain of UniProt Q9UKS7 (whole entry, looked up): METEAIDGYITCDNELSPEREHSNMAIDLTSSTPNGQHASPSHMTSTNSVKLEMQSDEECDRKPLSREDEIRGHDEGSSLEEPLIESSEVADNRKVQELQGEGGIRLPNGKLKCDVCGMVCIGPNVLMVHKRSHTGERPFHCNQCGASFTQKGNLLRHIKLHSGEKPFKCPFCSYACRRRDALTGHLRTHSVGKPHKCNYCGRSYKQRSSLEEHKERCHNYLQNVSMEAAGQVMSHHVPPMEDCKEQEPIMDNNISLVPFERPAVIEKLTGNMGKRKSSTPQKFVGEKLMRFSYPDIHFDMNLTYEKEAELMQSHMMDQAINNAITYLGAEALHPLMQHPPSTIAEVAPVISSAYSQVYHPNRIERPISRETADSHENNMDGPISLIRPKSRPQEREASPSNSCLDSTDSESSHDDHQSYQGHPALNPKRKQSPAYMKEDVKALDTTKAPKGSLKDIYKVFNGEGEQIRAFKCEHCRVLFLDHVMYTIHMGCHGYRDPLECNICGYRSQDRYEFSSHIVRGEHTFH
Mode: degrader
Technique: HiBiT
Cells: HEK293
Concentration: 1.524 nM
Quantity: protein remaining
O=C1CCC(N2Cc3c(ccc4c3OCC43CCC(Cc4ccccc4)CC3)C2=O)C(=O)N1 (centres unmarked): 101%
O=C1CCC(N2Cc3c(ccc4c3OCCC43CCN(Cc4ccccc4)CC3)C2=O)C(=O)N1 (centres unmarked): 97.4%
O=C1CCC(N2Cc3c(ccc4c3OCC43CCC(Oc4ccccc4)CC3)C2=O)C(=O)N1 (centres unmarked): 98.2%

Other studies, line by line
CC(C)n1cnc(-c2ccc(F)cc2)c1-c1ncc(C(=O)Nc2ccc(N3CCN(C)CC3)cc2)[nH]1
patients with pulmonary embolism (phase 2a trial; idiopathic pulmonary fibrosis patients; all arms, grade 1 emergent event): 0%
